Measured values collected from several papers.
Every numbered part comes from another study and shows a few of its results, in no order. “And” joins repeats or separate records; there may be more than shown.
Sequence of UniProt P04629 (whole entry, looked up): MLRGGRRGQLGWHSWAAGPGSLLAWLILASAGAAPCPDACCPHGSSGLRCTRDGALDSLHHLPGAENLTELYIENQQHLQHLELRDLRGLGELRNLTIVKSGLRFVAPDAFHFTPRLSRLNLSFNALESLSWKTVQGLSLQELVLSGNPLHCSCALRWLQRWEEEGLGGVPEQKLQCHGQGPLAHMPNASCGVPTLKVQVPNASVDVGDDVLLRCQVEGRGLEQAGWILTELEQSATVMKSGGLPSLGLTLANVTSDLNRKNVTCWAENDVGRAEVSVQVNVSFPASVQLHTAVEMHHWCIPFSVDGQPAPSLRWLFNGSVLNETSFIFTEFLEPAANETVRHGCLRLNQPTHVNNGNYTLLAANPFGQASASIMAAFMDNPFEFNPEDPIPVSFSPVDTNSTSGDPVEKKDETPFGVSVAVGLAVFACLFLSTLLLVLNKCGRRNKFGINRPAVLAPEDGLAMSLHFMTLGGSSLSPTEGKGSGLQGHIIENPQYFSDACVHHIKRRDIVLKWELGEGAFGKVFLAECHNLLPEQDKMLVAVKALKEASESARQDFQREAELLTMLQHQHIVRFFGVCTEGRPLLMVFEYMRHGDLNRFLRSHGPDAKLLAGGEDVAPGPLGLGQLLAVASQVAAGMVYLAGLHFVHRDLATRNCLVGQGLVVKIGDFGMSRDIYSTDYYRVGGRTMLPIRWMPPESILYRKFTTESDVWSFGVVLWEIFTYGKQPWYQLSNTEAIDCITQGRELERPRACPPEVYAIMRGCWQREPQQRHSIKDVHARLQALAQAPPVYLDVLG
Sequence of UniProt O14578 (whole entry, looked up): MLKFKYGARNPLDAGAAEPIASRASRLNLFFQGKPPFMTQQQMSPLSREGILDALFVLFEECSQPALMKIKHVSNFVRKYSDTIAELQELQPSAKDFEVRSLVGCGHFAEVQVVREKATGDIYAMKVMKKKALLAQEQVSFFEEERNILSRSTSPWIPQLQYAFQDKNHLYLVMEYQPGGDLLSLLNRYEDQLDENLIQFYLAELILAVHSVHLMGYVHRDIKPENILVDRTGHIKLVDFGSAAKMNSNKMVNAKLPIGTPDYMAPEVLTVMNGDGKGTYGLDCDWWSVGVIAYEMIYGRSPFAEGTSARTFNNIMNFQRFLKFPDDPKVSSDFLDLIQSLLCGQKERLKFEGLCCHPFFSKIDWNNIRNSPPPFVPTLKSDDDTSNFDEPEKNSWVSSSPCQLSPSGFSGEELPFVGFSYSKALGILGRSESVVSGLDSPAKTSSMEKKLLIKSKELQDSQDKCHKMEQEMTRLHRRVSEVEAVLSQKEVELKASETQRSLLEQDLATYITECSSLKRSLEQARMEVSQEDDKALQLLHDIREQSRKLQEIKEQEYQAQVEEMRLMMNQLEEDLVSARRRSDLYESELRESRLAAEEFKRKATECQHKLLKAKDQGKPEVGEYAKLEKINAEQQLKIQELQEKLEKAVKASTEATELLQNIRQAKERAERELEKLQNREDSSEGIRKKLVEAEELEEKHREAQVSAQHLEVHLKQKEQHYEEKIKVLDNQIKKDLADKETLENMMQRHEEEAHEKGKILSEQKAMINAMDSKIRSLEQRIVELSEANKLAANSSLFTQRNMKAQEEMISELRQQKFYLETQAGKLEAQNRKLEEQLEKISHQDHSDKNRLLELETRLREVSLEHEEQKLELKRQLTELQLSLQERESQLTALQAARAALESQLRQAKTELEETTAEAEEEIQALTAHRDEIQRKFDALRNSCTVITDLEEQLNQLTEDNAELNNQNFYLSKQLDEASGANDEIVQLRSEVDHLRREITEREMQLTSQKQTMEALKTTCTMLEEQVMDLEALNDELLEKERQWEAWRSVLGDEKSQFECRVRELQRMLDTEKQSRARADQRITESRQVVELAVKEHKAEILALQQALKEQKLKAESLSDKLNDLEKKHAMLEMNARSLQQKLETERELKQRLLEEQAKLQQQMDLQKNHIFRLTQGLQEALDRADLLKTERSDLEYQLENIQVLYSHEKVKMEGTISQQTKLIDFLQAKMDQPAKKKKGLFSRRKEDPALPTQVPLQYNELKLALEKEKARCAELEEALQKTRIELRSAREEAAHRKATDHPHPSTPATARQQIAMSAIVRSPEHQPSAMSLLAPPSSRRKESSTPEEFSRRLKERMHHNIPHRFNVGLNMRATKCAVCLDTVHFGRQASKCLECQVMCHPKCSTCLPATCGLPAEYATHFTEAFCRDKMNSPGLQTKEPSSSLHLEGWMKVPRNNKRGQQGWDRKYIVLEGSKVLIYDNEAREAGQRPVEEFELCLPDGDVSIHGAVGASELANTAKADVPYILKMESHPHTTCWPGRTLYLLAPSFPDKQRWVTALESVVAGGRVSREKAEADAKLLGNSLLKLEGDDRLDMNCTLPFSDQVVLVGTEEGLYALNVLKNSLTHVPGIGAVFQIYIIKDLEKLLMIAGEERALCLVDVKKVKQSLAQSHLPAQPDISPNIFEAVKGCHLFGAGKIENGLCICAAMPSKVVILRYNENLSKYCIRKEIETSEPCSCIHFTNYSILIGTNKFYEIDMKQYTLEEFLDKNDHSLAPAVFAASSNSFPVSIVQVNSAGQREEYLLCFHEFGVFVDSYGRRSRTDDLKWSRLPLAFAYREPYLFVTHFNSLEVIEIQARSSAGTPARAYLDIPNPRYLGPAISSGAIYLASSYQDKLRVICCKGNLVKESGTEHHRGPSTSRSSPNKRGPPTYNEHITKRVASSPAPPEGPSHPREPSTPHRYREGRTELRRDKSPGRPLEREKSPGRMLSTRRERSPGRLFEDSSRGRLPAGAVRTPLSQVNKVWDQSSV
Sequence of UniProt O95819 (whole entry, looked up): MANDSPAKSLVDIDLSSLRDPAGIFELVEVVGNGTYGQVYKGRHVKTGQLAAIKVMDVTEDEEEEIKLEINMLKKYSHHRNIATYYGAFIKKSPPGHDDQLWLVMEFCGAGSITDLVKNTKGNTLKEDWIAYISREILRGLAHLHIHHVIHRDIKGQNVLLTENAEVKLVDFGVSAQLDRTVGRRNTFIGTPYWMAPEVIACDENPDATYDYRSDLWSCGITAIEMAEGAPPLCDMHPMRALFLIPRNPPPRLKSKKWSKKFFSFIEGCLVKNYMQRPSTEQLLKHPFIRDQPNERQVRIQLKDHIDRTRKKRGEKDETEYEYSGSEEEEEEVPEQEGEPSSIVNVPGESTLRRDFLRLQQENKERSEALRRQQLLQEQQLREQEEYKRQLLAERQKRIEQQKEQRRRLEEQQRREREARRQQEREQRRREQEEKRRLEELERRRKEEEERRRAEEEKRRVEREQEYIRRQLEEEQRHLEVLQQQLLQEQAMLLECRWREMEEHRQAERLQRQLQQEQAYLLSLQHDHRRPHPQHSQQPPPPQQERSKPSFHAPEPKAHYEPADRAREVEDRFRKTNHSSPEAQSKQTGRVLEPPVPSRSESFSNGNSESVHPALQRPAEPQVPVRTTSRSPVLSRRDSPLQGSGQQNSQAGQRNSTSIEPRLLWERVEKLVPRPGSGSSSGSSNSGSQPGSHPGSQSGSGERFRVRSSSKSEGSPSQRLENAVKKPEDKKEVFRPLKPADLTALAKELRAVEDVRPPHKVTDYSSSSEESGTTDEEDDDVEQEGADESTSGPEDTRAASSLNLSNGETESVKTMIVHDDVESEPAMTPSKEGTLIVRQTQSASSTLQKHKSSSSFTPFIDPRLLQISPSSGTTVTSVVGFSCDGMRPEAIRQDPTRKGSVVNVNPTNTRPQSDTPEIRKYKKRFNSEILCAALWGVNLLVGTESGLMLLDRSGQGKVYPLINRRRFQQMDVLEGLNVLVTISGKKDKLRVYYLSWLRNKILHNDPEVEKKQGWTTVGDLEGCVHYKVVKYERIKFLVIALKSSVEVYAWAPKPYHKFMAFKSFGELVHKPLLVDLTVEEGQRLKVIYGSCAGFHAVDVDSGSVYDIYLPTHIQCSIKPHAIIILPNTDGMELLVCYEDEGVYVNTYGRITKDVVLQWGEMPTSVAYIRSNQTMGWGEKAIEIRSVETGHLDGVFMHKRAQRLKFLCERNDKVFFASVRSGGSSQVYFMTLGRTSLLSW
Sequence of UniProt Q16659 (whole entry, looked up): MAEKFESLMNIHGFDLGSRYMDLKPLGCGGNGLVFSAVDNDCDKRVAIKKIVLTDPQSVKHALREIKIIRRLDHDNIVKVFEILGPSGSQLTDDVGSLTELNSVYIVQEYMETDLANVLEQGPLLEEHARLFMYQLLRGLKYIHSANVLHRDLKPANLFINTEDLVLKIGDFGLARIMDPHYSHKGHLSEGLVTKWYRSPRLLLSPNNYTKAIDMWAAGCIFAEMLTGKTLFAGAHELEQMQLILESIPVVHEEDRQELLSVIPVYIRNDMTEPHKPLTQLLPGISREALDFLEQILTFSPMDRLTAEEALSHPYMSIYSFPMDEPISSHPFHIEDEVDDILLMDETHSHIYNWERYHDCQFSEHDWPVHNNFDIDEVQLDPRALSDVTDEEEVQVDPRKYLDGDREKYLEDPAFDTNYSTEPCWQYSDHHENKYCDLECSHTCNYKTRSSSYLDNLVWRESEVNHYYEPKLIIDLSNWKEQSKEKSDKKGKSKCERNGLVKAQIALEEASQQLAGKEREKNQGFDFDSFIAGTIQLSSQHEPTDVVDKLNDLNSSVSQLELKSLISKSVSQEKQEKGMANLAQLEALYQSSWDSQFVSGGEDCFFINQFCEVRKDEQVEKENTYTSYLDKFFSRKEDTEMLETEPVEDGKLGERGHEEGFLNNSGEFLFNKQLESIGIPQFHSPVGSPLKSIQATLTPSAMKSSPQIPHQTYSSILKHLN

Series 1
Target: Diamine acetyltransferase 1 (Homo sapiens, UniProt P21673)
Mode: inhibitor
Concentration: 10 µM
Relative to: control
Target sequence (P21673 1-171): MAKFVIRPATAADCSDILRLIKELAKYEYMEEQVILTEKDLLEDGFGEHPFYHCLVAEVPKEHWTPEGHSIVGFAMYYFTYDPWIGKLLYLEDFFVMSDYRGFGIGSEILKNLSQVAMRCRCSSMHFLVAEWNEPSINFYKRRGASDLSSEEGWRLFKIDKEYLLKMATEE
With `C=C1CCOC1=O` the remaining activity was 108%.
`CCCCCCCCCCCCCCCCCCC(=O)O` has a remaining activity of 102%.
With `C=CC(=C)CCC=C(C)C` the remaining activity was 102%.
With `O=c1c(-c2ccc(O)cc2)coc2cc(O[C@@H]3O[C@H](CO)[C@@H](O)[C@H](O)[C@H]3O)cc(O)c12` the remaining activity was 96.3%.
The remaining activity of `COc1cc2oc(-c3ccc(O)c(O)c3)cc(=O)c2c(O)c1[C@@H]1O[C@H](CO)[C@@H](O)[C@H](O)[C@H]1O` is reported as 94.1%.
`O=C1c2ccccc2C(=O)c2c(O)c(O)cc(O)c21` has a remaining activity of 111%.
`C[C@@H]1O[C@@H](Oc2c(-c3ccc(O)c(O)c3)oc3cc(O)cc(O)c3c2=O)[C@H](O)[C@H](O)[C@H]1O` gave a remaining activity of 86.9%.
`CC(=O)O[C@H]1CC[C@]2(C)[C@H]3CC=C4[C@@H]5CC(C)(C)CC[C@]5(C(=O)O)CC[C@@]4(C)[C@]3(C)CC[C@H]2C1(C)C` gave a remaining activity of 75%.
With `CCCCCCCCCCCCCCCCCCCCCCC` the remaining activity was 75.6%.
The remaining activity of `O=Cc1ccc(O)cc1O` is reported as 88.7%.
`COc1c2ccoc2c(OC[C@@H](O)C(C)(C)O)c2oc(=O)ccc12` gave a remaining activity of 89.7%.
With `CC(C)=CCc1c(O)cc(O)c2c(=O)c(-c3ccc(O)cc3)coc12` the remaining activity was 103%.
With `CC1(C)[C@@H]2CC[C@@]1(C)[C@H](O)C2` the remaining activity was 101%.
For `CC/C=C\CCO`, the remaining activity was 109%.
For `CCCCCCCC/C=C/CCCCCCCC(=O)O`, the remaining activity was 85.6%.
With `COc1cc2ccc(=O)oc2cc1OC` the remaining activity was 84.7%.
With `CC(=O)OC/C=C(/C)CCC=C(C)C` the remaining activity was 90.9%.

Series 2
Target: Cyclin-dependent kinase 5, with p35 (CDK5, Homo sapiens, UniProt Q00535)
Sequence of UniProt Q00535 (whole entry, looked up): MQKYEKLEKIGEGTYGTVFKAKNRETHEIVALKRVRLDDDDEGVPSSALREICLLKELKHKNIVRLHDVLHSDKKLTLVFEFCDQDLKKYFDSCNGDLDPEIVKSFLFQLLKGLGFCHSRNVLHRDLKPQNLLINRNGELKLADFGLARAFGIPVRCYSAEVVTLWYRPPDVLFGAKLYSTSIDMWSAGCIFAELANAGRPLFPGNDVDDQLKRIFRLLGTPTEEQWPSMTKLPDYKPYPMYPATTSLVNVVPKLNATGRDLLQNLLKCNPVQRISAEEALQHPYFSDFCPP
Read-out: enzyme activity
Mode: inhibitor
Concentration: 0.5 µM
Relative to: control
With `O=C(c1cc2cc(O)ccc2[nH]1)c1cc2cc(O)ccc2[nH]1` the remaining activity was 57.3%.
For `CN(C)S(=O)(=O)c1ccc2c(c1)/C(=C/c1cc3c([nH]1)CCCC3)C(=O)N2`, the remaining activity was 76.9%.
With `c1ccc2c(-c3ccncc3)c[nH]c2c1` the remaining activity was 96%.
`O=C1Cc2c([nH]c3ccc(Br)cc23)-c2ccccc2N1` gave a remaining activity of 70.8%.
`Cc1ccc(S(=O)(=O)/C=C/C#N)cc1` has a remaining activity of 97%.
With `O=Nc1c(-c2c(O)[nH]c3cc(Br)ccc23)[nH]c2ccccc12` the remaining activity was 12.4%.
With `c1ccc(-c2n[nH]c3c2oc2ccccc23)cc1` the remaining activity was 85.8%.
With `O=C1Nc2ccccc2/C1=C\c1c(Cl)[nH]c2ccccc12` the remaining activity was 86.7%.
`O=C1NC(=O)c2c1c1c3ccccc3[nH]c1c1[nH]c3cc(Br)ccc3c21` has a remaining activity of 44.1%.
`COc1cccc(-c2cc(=O)c3ccccc3o2)c1N` has a remaining activity of 101%.
For `O=C1NC(=O)c2c1c1c3ccccc3[nH]c1n1cncc21`, the remaining activity was 67%.
For `CCCCc1c(-c2ccc(OC)cc2)[nH]c2nccnc12`, the remaining activity was 48.3%.
`O=c1cc(N2CCOCC2)oc2c(-c3ccccc3)cccc12` has a remaining activity of 107%.
`COc1ccc2c(c1)c(C1=C(c3c[nH]c4ccccc34)C(=O)NC1=O)cn2CCCN(C)C` has a remaining activity of 81.4%.
With `COc1ccc(COc2ccc(Cc3cnc(N)nc3N)cc2OC)cc1` the remaining activity was 106%.
`CCCNC(=O)Nc1ccc(Oc2ncnc3cc(OC)c(OC)cc23)cc1Cl` gave a remaining activity of 98%.
`O=C1Nc2ccc(Br)cc2/C1=C/c1cc2c([nH]1)CCCC2` has a remaining activity of 84.6%.
For `N#Cc1cnc2cnc(NCc3cccnc3)cc2c1Nc1ccc(F)c(Cl)c1`, the remaining activity was 80.4%.
The remaining activity of `Oc1cccc(-c2nc(N3CCOCC3)c3oc4ncccc4c3n2)c1` is reported as 101%.
`Cc1cc(Nc2cc(N3CCN(C)CC3)nc(Sc3ccc(NC(=O)C4CC4)cc3)n2)[nH]n1` has a remaining activity of 100%.

Series 3
Cell line: mouse MPNST tumor cells
Method: high-content immunofluorescence imaging
Item: nuclear SOX9
Concentration: 10 µM
Time: 12 h
Setting: mean of 2 replicates
Relative to: DMSO control
Reading: higher = more nuclear SOX9
`COc1ccc(C(=O)NCc2ccc(OCCN(C)C)cc2)cc1OC` — result for “nuclear SOX9 intensity”: 108 % of DMSO.
Under “nuclear SOX9 intensity”, `NC(N)=N/N=C/c1ccccc1Cl` is recorded as 119 % of DMSO.
`Cc1cccc(Nc2ccncc2S(=O)(=O)NC(=O)NC(C)C)c1` — result for “nuclear SOX9 intensity”: 106 % of DMSO.
For `CC(=O)OCC(=O)[C@@]1(O)CC[C@H]2[C@@H]3CCC4=CC(=O)C=C[C@]4(C)[C@@]3(F)[C@@H](O)C[C@@]21C`, “nuclear SOX9 intensity” read 75.3 % of DMSO.
`CC(=O)O[C@H]1CC[C@@]2(C)C(=CC[C@@H]3[C@@H]2CC[C@]2(C)C(c4cccnc4)=CC[C@@H]32)C1` — result for “nuclear SOX9 intensity”: 106 % of DMSO.
`CN1CC[C@@H](NC(=O)Nc2ccc(C#N)cc2)C[C@@H]1c1nc2ccccc2[nH]1`: “nuclear SOX9 intensity” 91.9 % of DMSO.
`CCCc1cc(C(N)=S)ccn1`: “nuclear SOX9 intensity” 102 % of DMSO.
For `Clc1ccc(COC(Cn2ccnc2)c2ccc(Cl)cc2Cl)cc1` (stereo not shown), “nuclear SOX9 intensity” read 147 % of DMSO.
For `CO[C@H]1/C=C/O[C@@]2(C)Oc3c(C)c(O)c4c(O)c(c(/C=N/N5CCN(C6CCCC6)CC5)c(O)c4c3C2=O)NC(=O)/C(C)=C\C=C\[C@H](C)[C@H](O)[C@@H](C)[C@@H](O)[C@@H](C)[C@H](OC(C)=O)[C@@H]1C`, “nuclear SOX9 intensity” read 80.3 % of DMSO.
`CC[C@]12CCCN3CCc4c(n(c5ccccc45)[C@@](O)(C(=O)OC)C1)[C@@H]32`: “nuclear SOX9 intensity” 102 % of DMSO.
For `O=C(CCBr)N1CCN(C(=O)CCBr)CC1`, “nuclear SOX9 intensity” read 102 % of DMSO.
`CNc1ccc([N+](=O)[O-])cc1-n1cnc(-c2ccc(C(F)(F)F)cc2)c1` — result for “nuclear SOX9 intensity”: 110 % of DMSO.
For `Nc1cccc(-c2cc3c(Oc4cccc(O)c4)ncnc3[nH]2)c1`, “nuclear SOX9 intensity” read 249 % of DMSO.
`Clc1cccc(Cl)c1/C(=C/n1cncn1)OC1CCCCCC1`: “nuclear SOX9 intensity” 110 % of DMSO.
For `O=C(COc1ccc(Cl)cc1)N1CCN(Cc2ccc3c(c2)OCO3)CC1`, “nuclear SOX9 intensity” read 106 % of DMSO.
`CC(Oc1c(Cl)cccc1Cl)C1=NCCN1` (stereo not shown): “nuclear SOX9 intensity” 108 % of DMSO.
`COC(=O)c1cnn(-c2ccc(F)cc2F)c1C=NNC(=S)NC(C)(C)C` — result for “nuclear SOX9 intensity”: 92.2 % of DMSO.
`COc1ccc(S(=O)(=O)N2CCC[C@H]2C(=O)Nc2cc(C)cc(C)c2)cc1`: “nuclear SOX9 intensity” 123 % of DMSO.
Under “nuclear SOX9 intensity”, `O=C1CCc2cc(OCCCCc3nnnn3C3CCCCC3)ccc2N1` is recorded as 99.7 % of DMSO and 104 % of DMSO.

Series 4
Compound: CNCc1ccccc1-c1csc([C@@H](C)Nc2nc(C)nc3cc(OC)c(OC)cc23)c1
Concentration: 1 µM
For NTRK1 (Homo sapiens, UniProt P04629); cell-free assay, competition with immobilised ligand: remaining binding read 87%.
PIK3CA (Homo sapiens, UniProt P42336, C420R); cell-free assay, competition with immobilised ligand — remaining binding: 81%.
It gave 92% for remaining binding (CIT (Homo sapiens, UniProt O14578); cell-free assay, competition with immobilised ligand).
It gave 97% for remaining binding (LTK (Homo sapiens, UniProt P29376); cell-free assay, competition with immobilised ligand).
For MAP4K4 (Homo sapiens, UniProt O95819); cell-free assay, competition with immobilised ligand: remaining binding read 100%.
DDR1 (Homo sapiens, UniProt Q08345); cell-free assay, competition with immobilised ligand — remaining binding: 100%.
It gave 88% for remaining binding (GAK (Homo sapiens, UniProt O14976); cell-free assay, competition with immobilised ligand).
Tyrosine-protein kinase JAK2, JH1 (JAK2, Homo sapiens, UniProt O60674); cell-free assay, competition with immobilised ligand — remaining binding: 67%.
It gave 57% for remaining binding (FLT3 (Homo sapiens, UniProt P36888, F691L/ITD); cell-free assay, competition with immobilised ligand).
For SRC (Homo sapiens, UniProt P12931); cell-free assay, competition with immobilised ligand: remaining binding read 100%.
It gave 100% for remaining binding (NEK7 (Homo sapiens, UniProt Q8TDX7); cell-free assay, competition with immobilised ligand).
Tyrosine-protein kinase ABL1, phosphorylated (ABL1, Homo sapiens, UniProt P00519); cell-free assay, competition with immobilised ligand — remaining binding: 97%.
The remaining binding was 70% (RAF1 (Homo sapiens, UniProt P04049); cell-free assay, competition with immobilised ligand).
The remaining binding was 95% (AAK1 (Homo sapiens, UniProt Q2M2I8); binding).
The remaining binding was 76% (EPHA2 (Homo sapiens, UniProt P29317); cell-free assay, competition with immobilised ligand).
The remaining binding was 100% (MAPK6 (Homo sapiens, UniProt Q16659); cell-free assay, competition with immobilised ligand).
FYN (Homo sapiens, UniProt P06241); cell-free assay, competition with immobilised ligand — remaining binding: 100%.
